Measured values collected from several papers.
Parts stem from different laboratories: compare values within a part only.

Set 1 — method: universal PBM; molecule type: double-stranded DNA, one strand shown; sample: in vitro; tested at: not given; reading: higher = stronger binding
Target: Sal-like protein 4, full length isoform B (SALL4, Homo sapiens, UniProt Q9UJQ4-2, residues 1-616)
Notes: 8-mer, flanks averaged, mean of replicates
Residues (chain): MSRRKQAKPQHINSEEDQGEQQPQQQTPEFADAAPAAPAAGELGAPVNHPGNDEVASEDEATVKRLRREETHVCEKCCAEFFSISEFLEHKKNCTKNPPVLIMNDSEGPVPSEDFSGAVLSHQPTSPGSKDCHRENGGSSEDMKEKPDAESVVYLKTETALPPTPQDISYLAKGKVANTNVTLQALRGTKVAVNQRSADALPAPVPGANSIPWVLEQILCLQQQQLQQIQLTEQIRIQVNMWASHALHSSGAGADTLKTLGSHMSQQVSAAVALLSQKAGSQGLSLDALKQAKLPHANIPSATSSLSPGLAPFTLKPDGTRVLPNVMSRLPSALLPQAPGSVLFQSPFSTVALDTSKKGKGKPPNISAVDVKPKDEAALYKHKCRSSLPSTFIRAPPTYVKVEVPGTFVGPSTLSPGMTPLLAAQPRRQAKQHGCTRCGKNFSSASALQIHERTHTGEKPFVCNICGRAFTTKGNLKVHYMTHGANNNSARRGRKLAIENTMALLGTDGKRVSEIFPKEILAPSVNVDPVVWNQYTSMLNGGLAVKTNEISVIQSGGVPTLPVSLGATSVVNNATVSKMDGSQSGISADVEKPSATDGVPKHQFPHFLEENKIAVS
Strand | E-score
CTGGACTC | -0.0537
CCGCATCA | -0.155
ACCGGCGC | -0.272
TAGACAGA | 0.0901
ACCATCGT | -0.131
CGATTTAA | 0.175
AGGGCACC | -0.39
CTCAGAGC | -0.33
GGGTGCAC | -0.265
AACCGATG | -0.181
AAGGGCAG | -0.217
GAATGTCA | -0.0447
CTACGCAA | 0.0208
AACGCTAC | -0.00501
CTTCGTCA | 0.0265
ATTGTTTC | 0.175
ACGGAGAT | -0.189
ACTAGCTG | -0.0369
CGAGTTCC | -0.139
AAAGTACT | 0.133
GGTGAAGA | -0.167
CCATTGAC | -0.0191
AGTACGAC | 0.00306
GAGTTGTA | 0.139
CATCATGA | 0.0759

Set 2 — method: aptamer microarray, sandwich; molecule type: DNA with 2'F-ANA; sample: in vitro; tested at: 200 nM; added: Cy3 exosite-II aptamer, 400 nM; reading: higher = stronger binding; strand: GGTTGGTGTGGTTGG
Target: Prothrombin, mature alpha-thrombin (F2, Homo sapiens, UniProt P00734)
Notes: whole 15-mer aptamer, many near background
Modification | mean fluorescence intensity
2'F-ANA at 2 4 9 11 14 | 89.4 a.u.
2'F-ANA at 2 4 5 6 8 9 12 13 | 89.6 a.u.
2'F-ANA at 1 3 4 8 10 12 14 15 | 54.3 a.u.
2'F-ANA at 1 2 3 4 8 9 11 12 13 | 226 a.u.
2'F-ANA at 4 9 12 13 | 372 a.u.
2'F-ANA at 1 2 3 6 10 11 15 | 60.7 a.u.
2'F-ANA at 3 7 8 13 14 15 | 602 a.u.
2'F-ANA at 6 7 8 9 12 14 15 | 217 a.u.
2'F-ANA at 4 6 7 8 9 10 11 14 15 | 64.3 a.u.
2'F-ANA at 1 2 4 5 8 9 11 12 13 14 15 | 197 a.u.
2'F-ANA at 1 3 4 5 6 7 9 11 12 15 | 88.1 a.u.
2'F-ANA at 1 2 5 6 7 9 10 13 14 15 | 64 a.u.
2'F-ANA at 2 3 5 7 9 12 13 14 15 | 55.3 a.u.
2'F-ANA at 1 2 3 5 6 7 8 9 10 12 13 | 49.6 a.u.
2'F-ANA at 1 3 5 8 10 11 12 14 | 44.1 a.u.
2'F-ANA at 4 5 6 7 13 15 | 48.9 a.u.
2'F-ANA at 3 5 8 9 13 | 109 a.u.
2'F-ANA at 2 3 5 8 10 12 13 15 | 56.9 a.u.
2'F-ANA at 1 3 4 9 14 | 61.9 a.u.

Set 3 — method: protein-binding microarray; molecule type: double-stranded DNA, one strand shown; sample: in vitro; tested at: not given; reading: higher = stronger binding
Target: Myc proto-oncogene protein, bHLH-zipper, MAX partner unstated (MYC, Homo sapiens, UniProt P01106, residues 368-449)
Chain of UniProt P01106 (368-449, looked up): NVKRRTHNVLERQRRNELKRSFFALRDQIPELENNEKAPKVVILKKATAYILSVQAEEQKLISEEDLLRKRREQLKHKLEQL
Notes: k-mer, scored over probes, only values ≥0.25
Strand | E-score
CGTCCGCA | 0.256
ATCCGCAC | 0.255
CCACGAGG | 0.483
CGCATGCA | 0.416
CATGAGCA | 0.254
GCGGGGAA | 0.27
GGCCGCAC | 0.254
CGTGTCAG | 0.341
CGTGTGCC | 0.37
CTGCACAC | 0.345
ACGAGGGA | 0.36
CCCCGTCC | 0.278
GACCACAC | 0.325
CCCGCGCC | 0.288
CCATGGGG | 0.364
GCACACCA | 0.339
CATGGCGG | 0.36
CAGGGGCG | 0.261
CCCGCCCC | 0.388
ACCTCGCC | 0.273
GCGCACCC | 0.303
CCGCCCCA | 0.392
ATGTGGGG | 0.257

Set 4 — method: RNA Bind-n-Seq; molecule type: RNA; sample: in vitro; tested at: 365 nM; relative to: no-protein control; reading: higher = stronger binding
Target: RNA binding protein fox-1 homolog 2, RRM domain, GST-SBP tag (RBFOX2, Homo sapiens, UniProt O43251-10, residues 100-194)
Notes: natural RNA segment, single round, ends assumed
All sequences stand within: GGGAGUUCUACAGUCCGACGAUC … UGGAAUUCUCGGGUGCCAA
Construct (chain): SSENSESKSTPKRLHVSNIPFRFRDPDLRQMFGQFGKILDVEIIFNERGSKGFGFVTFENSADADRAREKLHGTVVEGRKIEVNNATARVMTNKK
Strand | RBNS enrichment (R)
UUUGCACUAGCUCUAAAGAAGAAUUUCUUCUGGUUUUAGAGAACUGAUUUUGUUUUAGCAUUAAACUGUUCAAGUUUUUGUACGUAGAUAUCUAGAUACUGCAGUCAGGU | 0.805
GAGCAAGAAACAAGGGCCUUAGAUGUGCCACGAAGGGCCCUUUGGUGGGCUGUGUGACAGUCGCGUGUGUCAUGAAGUGUGAAAUCUGGAGGAAGAAAAAAAAACAAGAG | 0.409
GAUCGGUGACAGUCACUAGCUUAUCUUGAACAGAUAUUUAAUUUUGCUAACACUCAGCUCUGCCCUCCCCGAUCCCCUGGCUCCCCAGCACACAUUCCUUUGAAAUAAGG | 0.397
UACUCCAAGAGGAUAGGGAGGGCACUGCACCCAAGCAGGAGGUGAGGUCUGUCACUAGGCAGGAAACCAUGUAGGUAAGUGUAGGACCUGCUUUGCUUAGCCACUACUGG | 0.634
CUUAGUUGGUGCCCAUUCUGCACCAGUUGUUUUACCCCUGCCGAUAACCAGCAGUCAGAGAUUCUUUUUUAAUCCUUGGAGACAGGGAAAGGGACAGAUAGCUUUCCAAG | 0.325
UGGGAGGUUUGAAGCUUACAAAUUGAGAACGUGCCAUGCAUGAAACAAAGGGUUCCAGGCUCCAGAGAGGAGAUCACCUCGACGCCAAUGUCACCGAGGCACCUGUCUCA | 9.27
AGCCACACAGCUAUUCUUUGGCCAGACCCUCACUACAGUAACUCAUCAACUCUGGCUCUUGUAGGGGCUGGAGCAGCUAGUUCAUGCUGCCUGUGGAACUCACUUCCUGG | 0.244
AAAGCAAAUAUUAAGAUUUUUACUCAUUCAAGGCAAGUAAAUGAAUGGAAUUAUCUGAGCUCUAUGGCACUGGUUGUUUAGAGUGACUGAUGAAGUGCAACUUUCAAAAA | 0.412
AGCCAUGGCCACUCCUGUGCCGGGGAAGACAUCACAUACCUUCAGCACUUCUCACAAUGUAACUGCUUUAGUCAUAUUAACCUGAAGUUGCAGUUUAGACACAUGUUUUU | 0.233
UCAGUGAAUGGAAGGAUGUCUUGAUGCUCAAGAGUCCCCGCCCCCAAAGUACGGGUAAUUCAGCCUGCACAGUUUCCUUUCACUCAUAGUUUCACAAUUACGAGUGAAAA | 0.222
UUCCAAGGCCUUGCCCUCAGAGCAGGGGCCUGGGCACUCUCACUCACGUGGCCUGUCUCCAGAUCCCUGUCUGAUUUCUGAAUGUAAAGAGGCUUUUUGUUUUGUUUUUG | 1.79
GAAGUUAGGAAAUUCAGUUUGUCUCUUACUUCUUGAAAAUGGCAGGGAGCAGCUGCAGCCCCUGACUUGUCUGGGGGGAUGUUUAGGAUAUGACAGAGGUUAGAGUCAGU | 0.838

Some of these lines once more (set 2):
Modification | mean fluorescence intensity
2'F-ANA at 1 2 3 4 8 9 11 12 13 | 226 a.u.
2'F-ANA at 4 9 12 13 | 372 a.u.
2'F-ANA at 1 2 3 6 10 11 15 | 60.7 a.u.
2'F-ANA at 3 7 8 13 14 15 | 602 a.u.
2'F-ANA at 6 7 8 9 12 14 15 | 217 a.u.
2'F-ANA at 4 6 7 8 9 10 11 14 15 | 64.3 a.u.
2'F-ANA at 1 2 4 5 8 9 11 12 13 14 15 | 197 a.u.
2'F-ANA at 1 3 4 5 6 7 9 11 12 15 | 88.1 a.u.
2'F-ANA at 1 2 5 6 7 9 10 13 14 15 | 64 a.u.
2'F-ANA at 2 3 5 7 9 12 13 14 15 | 55.3 a.u.
2'F-ANA at 1 2 3 5 6 7 8 9 10 12 13 | 49.6 a.u.
2'F-ANA at 1 3 5 8 10 11 12 14 | 44.1 a.u.
2'F-ANA at 4 5 6 7 13 15 | 48.9 a.u.
